{"data": "Published values from different studies", "note": "A part holds a random share of what one study measured."}
{"data": "Block 1", "target": "RNA binding protein fox-1 homolog 2, RRM domain, GST-SBP tag (RBFOX2, Homo sapiens, UniProt O43251-10, residues 100-194)", "method": "RNA Bind-n-Seq", "molecule type": "RNA", "matrix": "in vitro", "concentration": "365 nM", "notes": "natural RNA segment, single round, ends assumed", "baseline": "no-protein control", "reading": "higher = stronger binding", "constant ends, left off below": "GGGAGUUCUACAGUCCGACGAUC … UGGAAUUCUCGGGUGCCAA", "Target sequence (chain)": "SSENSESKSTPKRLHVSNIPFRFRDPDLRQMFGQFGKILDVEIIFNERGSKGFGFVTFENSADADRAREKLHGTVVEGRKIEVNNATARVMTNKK"}
{"Oligonucleotide": "GUUUUCAUUGAUUAUAUGGGUAUAUAUUCAUCUAAUAAAUCAGUGAACUGUUCCUCAUGUUGCUGAAUUUGUAGUUGUUGGUUUAUUUUAAUGGUAUGUACAAGUUGAGU", "RBNS enrichment (R)": 1.01}
{"Oligonucleotide": "AAAACUAAUUUAGGUUCCAAUAGUUGUGCAGAACUUGUGUUUCUUGGUGAUUCUCCUCAAGUACUAGCUGCCUAAGCUACAGAGGGCACUGGCCUGCUCCUACAGAAGGA", "RBNS enrichment (R)": 0.413}
{"Oligonucleotide": "AUUCCAGAAUGGGGAUAGGCUGAAACCCCCUUCCAGCCUCUGGAAGACACUGGCCUGCAUCAGUUAGAGUCAGAGCAAGUGUCACUUCACAGGGAAAAGAAGGAUUAUAU", "RBNS enrichment (R)": 0.227}
{"Oligonucleotide": "GCUAAAUUUCGUAGCACUGUUUACAGUUUUCCUCCAUGUUAUUUAUGAAUUUUAUAUUCCGUGAAUGUAUAUUGUCUUGUAAUGUUGCAUAAUGUUCACUUUUUAUAGUG", "RBNS enrichment (R)": 2.02}
{"Oligonucleotide": "ACACUUUUUCCCUGUUAGAAUUCUUUGCAUUUUUGUGUUUGUAACAGAAACGCCUUAAGACACUAUGUUUGGGAAUAUAGGAAACUAUGUGUGUCCCAAGGAAAUCCCUG", "RBNS enrichment (R)": 0.443}
{"data": "Block 2", "target": "TAR DNA-binding protein 43, full length, His tag (TARDBP, Homo sapiens, UniProt Q13148, residues 1-414)", "method": "RNA Bind-n-Seq", "molecule type": "RNA", "matrix": "in vitro", "concentration": "20 nM", "notes": "6-mer, flanks averaged, single round", "added": "150 mM KCl", "baseline": "input library", "reading": "higher = stronger binding"}
{"Oligonucleotide": "UUUAAA", "6-mer enrichment (R)": 0.634}
{"Oligonucleotide": "UCUCAU", "6-mer enrichment (R)": 0.54}
{"Oligonucleotide": "UCUUGC", "6-mer enrichment (R)": 0.611}
{"Oligonucleotide": "GGAGGG", "6-mer enrichment (R)": 10.8}
{"Oligonucleotide": "CCAGCU", "6-mer enrichment (R)": 0.652}
{"Oligonucleotide": "UGCUAU", "6-mer enrichment (R)": 0.634}
{"Oligonucleotide": "GGAUUC", "6-mer enrichment (R)": 0.791}
{"Oligonucleotide": "AAGCGA", "6-mer enrichment (R)": 0.799}
{"data": "Block 3", "target": "Sal-like protein 4, full length isoform A (SALL4, Homo sapiens, UniProt Q9UJQ4, residues 1-1053)", "method": "universal PBM", "molecule type": "double-stranded DNA, one strand shown", "matrix": "in vitro", "concentration": "600 nM", "notes": "8-mer, flanks averaged, mean of replicates", "reading": "higher = stronger binding", "UniProt Q9UJQ4, sequence (whole entry, looked up)": "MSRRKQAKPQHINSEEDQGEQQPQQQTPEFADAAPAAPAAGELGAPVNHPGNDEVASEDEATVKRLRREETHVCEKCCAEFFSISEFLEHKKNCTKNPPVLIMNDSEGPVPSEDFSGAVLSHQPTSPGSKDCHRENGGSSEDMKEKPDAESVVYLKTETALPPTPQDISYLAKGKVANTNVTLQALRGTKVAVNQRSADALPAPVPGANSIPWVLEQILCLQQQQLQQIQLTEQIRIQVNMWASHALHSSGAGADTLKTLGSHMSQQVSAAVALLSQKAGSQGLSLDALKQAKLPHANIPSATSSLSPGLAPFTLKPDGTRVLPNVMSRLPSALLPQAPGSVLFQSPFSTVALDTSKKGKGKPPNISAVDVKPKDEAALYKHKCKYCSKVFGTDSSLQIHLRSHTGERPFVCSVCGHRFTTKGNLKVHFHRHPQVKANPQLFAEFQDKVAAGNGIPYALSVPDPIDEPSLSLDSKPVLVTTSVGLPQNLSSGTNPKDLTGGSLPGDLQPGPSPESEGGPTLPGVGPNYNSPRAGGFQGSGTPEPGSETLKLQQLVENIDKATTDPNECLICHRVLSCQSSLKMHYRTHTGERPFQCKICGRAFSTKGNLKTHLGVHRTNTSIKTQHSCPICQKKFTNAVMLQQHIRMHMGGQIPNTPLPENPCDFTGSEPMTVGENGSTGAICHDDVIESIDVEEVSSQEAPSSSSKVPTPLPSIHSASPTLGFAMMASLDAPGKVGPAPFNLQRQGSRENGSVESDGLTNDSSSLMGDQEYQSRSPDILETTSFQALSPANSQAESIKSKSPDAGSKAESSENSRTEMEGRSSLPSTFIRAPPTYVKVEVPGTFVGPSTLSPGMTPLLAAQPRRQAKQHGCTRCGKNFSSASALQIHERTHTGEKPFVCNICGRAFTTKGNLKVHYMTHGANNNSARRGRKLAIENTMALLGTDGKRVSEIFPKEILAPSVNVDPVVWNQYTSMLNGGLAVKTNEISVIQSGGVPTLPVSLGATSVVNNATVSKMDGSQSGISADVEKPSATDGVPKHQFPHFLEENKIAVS"}
{"Oligonucleotide": "GAAGAGTC", "E-score": -0.116}
{"Oligonucleotide": "CTGTTATA", "E-score": 0.273}
{"Oligonucleotide": "GAGAATAA", "E-score": 0.208}
{"Oligonucleotide": "CACTAATC", "E-score": 0.116}
{"Oligonucleotide": "CCTGGTCA", "E-score": -0.218}
{"Oligonucleotide": "CGGAACGC", "E-score": -0.268}
{"data": "Other studies, line by line"}
{"Molecule": "PhoQ, residues 284 288 289 292 302 303 SSTLSG", "target": "PhoP, residues 12 14 15 18 19 GHCSL (Escherichia coli, UniProt P23836)", "assay": "Sort-seq, measured: YFP reporter", "system": "E. coli", "setting": "PhoQ-PhoP variant library, added: 10 µM Mg2+", "how to read": "baseline: high Mg2+ state, higher = stronger signaling", "quantity": "fold induction", "value": 4.24}
